# Measurements collected from several papers.
# Protocols differ between the studies behind these lines.
# Organism: Severe acute respiratory syndrome coronavirus 2
Compound,test,test system,conditions,IC50 [nM]
CC(=O)NCCCCCCCCCC1O[C@@H]2C[C@H]3[C@@H]4CCC5=CC(=O)C=C[C@]5(C)[C@H]4[C@@H](O)C[C@]3(C)[C@]2(C(=O)CO)O1 (stereo partly shown),"viral replication, inhibitor",VeroE6/TMPRSS2,24 h,5900
C=CCCCOP(=O)(O)Oc1c2c(c(OP(=O)(O)OCCCC=C)c3c1C1CC3c3cc4c(cc31)C1CC4c3ccccc31)C1CC2c2cc3c(cc21)C1CC3c2ccccc21,viral replication,Caco-2,,19900
COc1ccc(C(=O)OC2C(OC3C(O)COC(OC4CC5C6CC=C7CC(O)CCC7(C)C6CCC5(C)C4(O)C(C)C(=O)CCC(C)C)C3OC(C)=O)OCC(O)C2O)cc1 (stereo not shown),cytopathic effect,Vero C1008,72 h,~2
C[C@]12C=CC(=O)C=C1CC[C@@H]1[C@@H]2[C@@H](O)C[C@@]2(C)[C@H]1C[C@H]1OC(C3CCCC3)O[C@]12C(=O)CO (stereo partly shown),"viral replication, inhibitor",VeroE6/TMPRSS2,24 h,16000
O=P(O)(OCCc1ccccc1)Oc1c2c(c(OP(=O)(O)OCCc3ccccc3)c3c1C1CC3c3cc4c(cc31)C1CC4c3ccccc31)C1CC2c2cc3c(cc21)C1CC3c2ccccc21,viral replication,Caco-2,,1800
CC(=O)OCCCCCCCCCC1O[C@@H]2C[C@H]3[C@@H]4CCC5=CC(=O)C=C[C@]5(C)[C@H]4[C@@H](O)C[C@]3(C)[C@]2(C(=O)CO)O1 (stereo partly shown),"viral replication, inhibitor",VeroE6/TMPRSS2,24 h,6900
COc1cccc2c1C(=O)c1c(O)c3c(c(O)c1C2=O)C[C@@](O)(C(=O)CO)C[C@@H]3O[C@H]1C[C@H](N)[C@H](O)[C@H](C)O1,"viral replication, inhibitor",Calu-3,40 h,1170
Oc1ccc(Br)cc1-c1nc2cc(C(F)(F)F)ccc2s1,"viral replication, inhibitor, luciferase",,"24 h, replicon",2400
C=CCCCCOP(=O)(O)Oc1c2c(c(OP(=O)(O)OCCCCC=C)c3c1C1CC3c3cc4c(cc31)C1CC4c3ccccc31)C1CC2c2cc3c(cc21)C1CC3c2ccccc21,viral replication,Caco-2,,2600
C[C@]12C=CC(=O)C=C1CC[C@@H]1[C@@H]2[C@@H](O)C[C@@]2(C)[C@H]1C[C@H]1OC(c3cccc(Cl)c3)O[C@]12C(=O)CO (stereo partly shown),"viral replication, inhibitor",VeroE6/TMPRSS2,24 h,8500
CNCCN(C)c1ccc(Nc2cc(NC3CC3)n3ncc(C#N)c3n2)cc1NC(C)=O,"viral replication, inhibitor",HAE,,200 to 300
CC(=O)[C@]1(O)Cc2c(O)c3c(c(O)c2[C@@H](O[C@H]2C[C@H](N)[C@H](O)[C@H](C)O2)C1)C(=O)c1ccccc1C3=O,"viral replication, inhibitor",Calu-3,40 h,61
CCCCCCC1O[C@@H]2C[C@H]3[C@@H]4CCC5=CC(=O)C=C[C@]5(C)[C@H]4[C@@H](O)C[C@]3(C)[C@]2(C(=O)CO)O1 (stereo partly shown),viral replication,VeroE6/TMPRSS2,,5500
CN(C)CCOc1ccc(/C(=C(/CCCl)c2ccccc2)c2ccccc2)cc1,"viral replication, inhibitor",A549-ACE2,,1000
CCCCCc1cc2c(c(O)c1C(=O)O)[C@H]1C=C(C)CC[C@@H]1C(C)(C)O2,"viral replication, imaging",Vero,,13200
C[C@]12C=CC(=O)C=C1CC[C@@H]1[C@@H]2[C@@H](O)C[C@@]2(C)[C@H]1C[C@H]1OC(c3ccc(Cl)cc3)O[C@]12C(=O)CO (stereo partly shown),"viral replication, inhibitor",VeroE6/TMPRSS2,24 h,8300
Cc1ccc(N2CC3CC(C2)N3)cc1C(=O)NC1(c2ccc3c4c(cccc24)C(=O)N3C)CC1,viral replication,Vero C1008,,49.5
C#CCCCCOP(=O)(O)Oc1c2c(c(OP(=O)(O)OCCCCC#C)c3c1C1CC3c3cc4c(cc31)C1CC4c3ccccc31)C1CC2c2cc3c(cc21)C1CC3c2ccccc21,viral replication,Caco-2,,64900
C[C@]12C=CC(=O)C=C1CC[C@@H]1[C@@H]2[C@@H](O)C[C@@]2(C)[C@H]1C[C@H]1OC(CCCCCCCCCN=[N+]=[N-])O[C@]12C(=O)CO (stereo partly shown),"viral replication, inhibitor",VeroE6/TMPRSS2,24 h,7100
C#CCC(C)OP(=O)(O)Oc1c2c(c(OP(=O)(O)OC(C)CC#C)c3c1C1CC3c3cc4c(cc31)C1CC4c3ccccc31)C1CC2c2cc3c(cc21)C1CC3c2ccccc21 (stereo not shown),viral replication,Caco-2,,97000
CCC(CC)COC(=O)[C@H](C)N[P@](=O)(OC[C@H]1O[C@@](C#N)(c2ccc3c(N)ncnn23)[C@H](O)[C@@H]1O)Oc1ccccc1,viral replication,HeLa-ACE2,48 h,30
CCCCCCOP(=O)(O)Oc1c2c(c(OP(=O)(O)OCCCCCC)c3c1C1CC3c3cc4c(cc31)C1CC4c3ccccc31)C1CC2c2cc3c(cc21)C1CC3c2ccccc21,viral replication,Caco-2,,1000
CCN(CCO)CCCC(C)Nc1ccnc2cc(Cl)ccc12 (stereo not shown),viral replication,Vero,,2800
O=P(O)(OCCCc1ccccc1)Oc1c2c(c(OP(=O)(O)OCCCc3ccccc3)c3c1C1CC3c3cc4c(cc31)C1CC4c3ccccc31)C1CC2c2cc3c(cc21)C1CC3c2ccccc21,viral replication,Caco-2,,7000
Cc1ccc(N2CCN(C)CC2)cc1C(=O)NC1(c2ccc3c4c(cccc24)CC3)CC1,viral replication,Vero C1008,,457
